Assay results from different studies.
Each numbered part is a random draw from the data of one study; scales do not carry over between parts.

Block 1 — method: protein-binding microarray; molecule type: double-stranded DNA, one strand shown; sample: in vitro; tested at: 2200 nM top; notes: 60-bp whole probe; together with: salmon DNA 0.4 mg/ml; reference: random background probes; direction: higher = stronger binding; quantity: fitted relative affinity; shared flanks, not repeated: GCCTAGCAC … GTCTTGATTCGCTTGACGCTGCTG
Target: Interferon regulatory factor 7, full length, phosphomimetic (IRF7, Homo sapiens, UniProt Q92985, residues 1-503, S471D/S472D/S475D/S476D/S477D/S483D/S484D/S487D)
Construct (chain): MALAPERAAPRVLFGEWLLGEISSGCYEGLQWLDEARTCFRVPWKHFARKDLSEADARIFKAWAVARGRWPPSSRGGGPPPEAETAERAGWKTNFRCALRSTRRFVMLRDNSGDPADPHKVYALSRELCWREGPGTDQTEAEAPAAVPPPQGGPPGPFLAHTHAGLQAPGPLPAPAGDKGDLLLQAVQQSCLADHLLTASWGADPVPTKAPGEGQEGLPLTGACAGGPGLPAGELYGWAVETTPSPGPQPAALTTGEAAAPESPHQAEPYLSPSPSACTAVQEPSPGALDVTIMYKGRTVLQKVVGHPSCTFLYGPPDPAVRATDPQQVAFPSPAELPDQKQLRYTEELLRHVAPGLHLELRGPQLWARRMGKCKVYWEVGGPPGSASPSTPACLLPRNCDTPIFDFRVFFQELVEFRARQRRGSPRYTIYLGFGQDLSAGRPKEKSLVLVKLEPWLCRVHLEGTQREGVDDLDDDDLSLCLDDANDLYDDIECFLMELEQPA
GACGATTTCGGTTCCGAGACGTGCTAG: 6.14 z-score
TCACCTTTCACTTTAACACTGTGCTAG: 5.11 z-score
GTAGGTTTCGGGTATCGGTTAGTGCTA: 6.05 z-score
TTAGGTATCGACTATCTGTTAGTGCTA: 0.147 z-score
TTAGAACTGAGTCTCCATTAGTGCTAG: -0.0137 z-score
TCATGTTTGTCACTCTCAGAGTGCTAG: 1.67 z-score
GACGGACTGTTTATCCTGACGTGCTAG: 0.562 z-score
TTAGGTATCGACACTGGGCTAGTGCTA: -0.271 z-score
TTAGGACTGCGACTGGGTTAGTGCTAG: -0.436 z-score
GACGGATTGCTTTTCCTGACGTGCTAG: 1.05 z-score
CTAGGTCTCGGTCTCGGTTAGTGCTAG: 0.776 z-score
TCAGCTGTTTTTCTCACCACGTGCTAG: 1.17 z-score
GCAGGTCTGGACCCAGACTCGTGCTAG: -0.316 z-score
TCATTTTCAATTTTTGCACTGTGCTAG: 3.23 z-score
TTAGGTCTCCTTCTCCTTTGGTGCTAG: 1.17 z-score
TTGGATATCGGGACTGGATTAGTGCTA: -0.0762 z-score
TTAGGACAGGACTATCGGTTAGTGCTA: -0.254 z-score

Block 2 — method: aptamer microarray, sandwich; molecule type: DNA with 2'F-ANA; sample: in vitro; tested at: 200 nM; together with: Cy3 exosite-II aptamer, 400 nM; direction: higher = stronger binding; quantity: mean fluorescence intensity; oligonucleotide: GGTTGGTGTGGTTGG
Target: Prothrombin, mature alpha-thrombin (F2, Homo sapiens, UniProt P00734)
Notes: whole 15-mer aptamer, many near background
2'F-ANA at 2 4 9 11 13 14 15: 77.4 a.u.
2'F-ANA at 1 2 6 11 12 15: 324 a.u.
2'F-ANA at 1 3 6 9 11 13: 185 a.u.
2'F-ANA at 1 2 3 5 6 7 10 11 12 15: 56.6 a.u.
2'F-ANA at 1 3 4 7 8 9 10 13: 59.5 a.u.
2'F-ANA at 5 7 10: 47.8 a.u.
2'F-ANA at 4 5 8 9 10: 50.3 a.u.
2'F-ANA at 2 3 5 8 10 11 12 13 14: 52.1 a.u.
2'F-ANA at 4 6 8 12 14 15: 124 a.u.
2'F-ANA at 2 3 7 8 10 13 14 15: 286 a.u.
2'F-ANA at 3 5 7 8 9 10 11 14: 130 a.u.
2'F-ANA at 3 4 6 7 9 10 12 13 14 15: 189 a.u.
2'F-ANA at 1 2 9 12 13 15: 348 a.u.
2'F-ANA at 1 2 5 7 9 10 11 14: 44.7 a.u.
2'F-ANA at 1 2 3 8 10 12 13 15: 96.6 a.u.
2'F-ANA at 1 4 5 7 11 12 13 15: 91.1 a.u.
2'F-ANA at 3 4 7 9 11 12 14: 334 a.u.
2'F-ANA at 1 2 3 6 7 11 12 14 15: 78.7 a.u.
2'F-ANA at 2 3 5 8 9 11 12 14 15: 64.9 a.u.
2'F-ANA at 2 3 4 6 7 8 11 12 13 14: 288 a.u.

Block 3 — method: RNA Bind-n-Seq; molecule type: RNA; sample: in vitro; tested at: not given; reference: input RNA pool; direction: higher = stronger binding; quantity: bound/input enrichment
Target: RING finger protein unkempt homolog, zinc fingers 1-6, GST-SBP tag (UNK, Homo sapiens, UniProt Q9C0B0, residues 30-357)
UniProt Q9C0B0, sequence (30-357, looked up): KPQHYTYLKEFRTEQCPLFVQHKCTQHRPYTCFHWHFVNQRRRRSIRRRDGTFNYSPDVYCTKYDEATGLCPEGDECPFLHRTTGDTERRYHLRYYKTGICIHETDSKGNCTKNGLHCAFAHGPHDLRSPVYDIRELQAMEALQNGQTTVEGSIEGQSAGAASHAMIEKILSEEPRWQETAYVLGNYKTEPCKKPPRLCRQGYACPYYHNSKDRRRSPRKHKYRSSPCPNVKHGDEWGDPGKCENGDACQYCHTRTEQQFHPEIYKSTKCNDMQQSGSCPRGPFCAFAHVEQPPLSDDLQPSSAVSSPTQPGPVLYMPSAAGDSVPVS
Notes: RNA with constant flanks, human and mouse sites, ends assumed
Shared flanks, not repeated: GGGAGUUCUACAGUCCGACGAUC … CAACAGAGGAUUGAGCAUCA
UGUGACAAGCUUUAUACUUGCCGCUUGUGUCAUGAUAACAAUGAAGAUCAUCAACUAGAUCGCUUUAAAGUGAAGGAAGUGCAGUGCAUAAACUGUGAAAAAAUUCAACAUGCCCAACAG: 0.137 ratio
GCUUCGACCCAGCUGAGGAGCGAAGAGCUGCUGGCAGCGCCGAUUCCCAGCACGCCGCUUUUUAGAACUUCAGUUGUCAAAAUGGGCAGAAUCUUUCUUGACCAUAUCGGUGGUACCCGU: 0.131 ratio
CGAUGUCCAGUUACUGUCUGUGGAGAUGUGCAUGGGCAAUUUCAUGAUCUCAUGGAACUGUUUAGAAUUGGUGGCAAAUCACCAGAUACAAAUUACUUGUUUAUGGGAGAUUAUGUUGAC: 0.267 ratio
CACAUCAUAACCUUUUUAAGUGAAAUCACUUUAAUAUGGUUUUCUGAAGCCUCUCUAUCUGUUUACCAAAGUUUAUCUAACAGUCUGCAUAAGGUAAAGAAUAUACUGUGUCACAUUUUC: 0.168 ratio
CACUGCGAAAAUUCAUUCCGCUGUAAUGUUUUCACAAUAUUUAAAGCAGAAGCACGUCAGUUAGGAUUUCCUUCUGCAUAAGGUUUUUUUGUAGUGUAAUGUCUUAAUCAUAGUCUACCA: 1.49 ratio
AGAUAUCCUUCGGCUGAAUGUGGGUGGCUGCAUCUACACAGCCCGGCGAGAGUCUUUGUGCCGCUUUAAGGAUUCUAUGCUGGCAUCUAUGUUUAGUGGUCGUUUCCCUCUAAAAACAGA: 0.208 ratio
AAAAUGAGGGCAAGAAAGGAAAAGGAAAUAAAAGGAGUACAGAAGAAAGGGAGAAGAGAGUCAAGAAGAAAGCAGACAAGAGGAUACAUGAAGUGGCUAUGGGAGAAACAAAAGCCCAAA: 0.515 ratio
CUAGGUUGGCAGUUGACUAGUCAGGAAACCCAUGAGCUACAAAGUUGCUUAAAGCAAAUUAUUAGAAACAUAAAAUUCAAAGCACCUCCAUGUAACACUUUUGUGGAUCUGACUUCUGCA: 0.742 ratio
AAAGGAGAGAAGAAGGAGAAAAAACAGCAAUCAAUAGCUGGAAGUGCCGACUCUAAGCCAAUAGAUGUUUCCCGUCUGGAUCUUCGAAUUGGUUGCAUCAUAACUGCUAGAAAACACCCU: 0.254 ratio
UAUUCACAACUUGGAACAUUUGCACCAGUAUGGGAUGUAUUCAAAACAUCUACAGAGAAAUUAGCAAAUUGUCACUUGGAUCUUGUUAGAAAAUUACAAGAAUUAAUAAAGGAAGUUCAG: 1.07 ratio
AAAGAAUAUGAAGUAAUGUAUUCUUCAUCUUGUGAAACCACAAGAAAUACUACAGGCAUUGAAGAAUCAACUGAUGGGAUGAUUUUAGGACCAGAAGAUCUGAGUUACCAAAUAUAUGAU: 0.17 ratio

Block 4 — method: RNA Bind-n-Seq; molecule type: RNA; sample: in vitro; tested at: 365 nM; reference: no-protein control; direction: higher = stronger binding; quantity: RBNS enrichment (R)
Target: RNA binding protein fox-1 homolog 2, RRM domain, GST-SBP tag (RBFOX2, Homo sapiens, UniProt O43251-10, residues 100-194)
Notes: natural RNA segment, single round, ends assumed
Shared flanks, not repeated: GGGAGUUCUACAGUCCGACGAUC … UGGAAUUCUCGGGUGCCAA
Residues (chain): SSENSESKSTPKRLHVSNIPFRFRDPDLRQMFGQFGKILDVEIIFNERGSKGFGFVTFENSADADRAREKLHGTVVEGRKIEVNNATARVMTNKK
CCCAAACUGCCCGGUGGUCCGCCUCUCAGGACAGAGGUGCAACAUUUGGGAGUUUAUGCAAGGUGGCUGGGCUUUUAAGAACAACAUGGACAUCAGAAAUCACCAGAACC: 0.372
UUUCUGUGCACUUAACAAUGGAACCCAAACAGAAGAGAAUAAAGCCUUGAUACCAAAAUUGGGAAAGAACAUGUGUCCAUUUGGACCAAACGUUGUUGGUUUUUAAAAAA: 1.43
UUUUCCUCCCUUACAUAUAAAUAAAUAAUGGUAACCGGUUUCUAUCUUGUAGCACCAACUGCUGUAAGGGAAUGCUGCAGACAGUGCUUGGGCGAGUGUGGCGCCAACAA: 1
CUAGGCAAGUUGUAAAUAAAUUCAUAAUUCAAACAGCCAGUAUAUAUGCAUAUAUGAGUGUUAUAUUGCAAAAUCUUUGUUUUACUUACAUGGUUAAAGCAGCAAGAAUU: 0.667
AUGUUCAGCUUUAGAUAUGUGUCGUAAUGGGAGUCUGAAAACUGUAAUAAACUGUAUUCAUAUCCUGGCUGCUUUGUCUCUGUUGAUUUAGGGGGGUGGGAGAGAGGAGG: 1.08
UGGAGACAGCUUGGUUCCCUUUCCCUAGCUCCCUGGUGGGUGAAUGCCACCUCCUGAGAUCCUCACCUCUUGGAAUUAAAAUUGUUGGUCACUGGGGAAAGCCUGAGUUU: 0.899
AAAACUGUGACCAGUUCAAAUUAUGACUCAGAACGUAGGGCCAGCACCAGCUACCUCUGCAGACUCCCAGUGACUCUCUCUUCACAAGCAGAUGAAGGGAAGGCUCAGAA: 0.389
AAUUAACAAAUCUCCCUUCACUCACCACUAUCCUCAUUCUUGCAGUUGUCAAGGUGUAAGCCUCACUGUAAGUUACAAAGCUACCACUCCCCUCUUUAAGAACACAUAGC: 0.804
GCUCCACCUUUCAGCCCACGUCACGUGUAGUGUCCAUUUUGUGAAGCCCUGUUGUGCCACAGAGUGUAGCCAGGUCCCCCUGCAGCUAGUCCUAGUGAACCUCACCCCGA: 0.378
UAUCAAGCAGUACAUGAAAGUGUAAUAAUAAAAUGUCUAUGUAUCUUUAGUUACAUUCAGAUUUGUAACUUUAUAAACAUGUUUUCUGCCUGAGGUACUUUUUAAGGAGG: 0.332
UGCGGUUGGUCAUACUGAAGGGAAUUGAUGGCAAGAGGAUCCCCUGAGCAAGUCAGAAGUUACUCUCAUCAGUCGUUCAUGGUCACAACCUGAGGUACUCUGCUGAGUGG: 0.291
UCCUGUCUCAUGGCAGAAAAUUUUGAAGAUUAAAAAAUAAAAUAAUCAAAAUGUUUCCUCUUUCUAAGUGCGUCUUAACUCUUUCUUCAUUUAUACUGAGAGUUUCCAUG: 1.47

Block 5 — method: universal PBM; molecule type: double-stranded DNA, one strand shown; sample: in vitro; tested at: 600 nM; direction: higher = stronger binding; quantity: E-score
Target: Sal-like protein 4, full length isoform A (SALL4, Homo sapiens, UniProt Q9UJQ4, residues 1-1053)
UniProt Q9UJQ4, sequence (whole entry, looked up): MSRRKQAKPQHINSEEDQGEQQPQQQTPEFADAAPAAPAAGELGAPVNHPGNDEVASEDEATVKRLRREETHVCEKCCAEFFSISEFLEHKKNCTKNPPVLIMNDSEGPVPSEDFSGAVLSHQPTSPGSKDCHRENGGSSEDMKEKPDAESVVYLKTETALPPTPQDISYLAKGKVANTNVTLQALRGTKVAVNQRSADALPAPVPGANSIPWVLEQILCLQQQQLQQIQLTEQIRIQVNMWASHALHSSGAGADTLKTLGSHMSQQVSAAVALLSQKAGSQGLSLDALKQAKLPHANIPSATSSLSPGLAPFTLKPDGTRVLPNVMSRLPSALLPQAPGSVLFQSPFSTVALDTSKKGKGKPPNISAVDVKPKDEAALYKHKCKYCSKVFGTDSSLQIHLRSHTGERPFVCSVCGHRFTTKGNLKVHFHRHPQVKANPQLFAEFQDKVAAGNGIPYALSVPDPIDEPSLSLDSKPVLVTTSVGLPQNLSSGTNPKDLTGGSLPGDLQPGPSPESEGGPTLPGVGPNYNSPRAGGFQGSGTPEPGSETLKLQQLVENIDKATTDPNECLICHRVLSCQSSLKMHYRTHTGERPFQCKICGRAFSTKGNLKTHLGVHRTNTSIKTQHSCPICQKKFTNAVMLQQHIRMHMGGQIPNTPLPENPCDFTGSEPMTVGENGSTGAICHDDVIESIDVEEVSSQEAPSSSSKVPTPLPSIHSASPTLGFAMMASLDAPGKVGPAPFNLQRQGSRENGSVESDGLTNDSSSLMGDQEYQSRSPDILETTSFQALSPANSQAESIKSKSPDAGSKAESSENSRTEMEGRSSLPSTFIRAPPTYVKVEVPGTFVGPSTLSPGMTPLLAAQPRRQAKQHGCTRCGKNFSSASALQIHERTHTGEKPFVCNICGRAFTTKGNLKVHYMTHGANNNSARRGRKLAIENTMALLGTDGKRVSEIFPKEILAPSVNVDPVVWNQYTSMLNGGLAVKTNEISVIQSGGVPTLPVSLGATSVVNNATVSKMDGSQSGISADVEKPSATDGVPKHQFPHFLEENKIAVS
Notes: 8-mer, flanks averaged, mean of replicates
CCAGGGAG: -0.337
GCGAACGC: -0.127
AGGCCCCA: -0.324
CGTACGAC: -0.0785
AATCAGAC: 0.0742
CGGGCATA: -0.0749
TAGAGACA: 0.173
GTCTGAAC: -0.0761
ATATGAAG: 0.306
ACTCTAAT: 0.195
CCATACCA: -0.0435
CCAGGTAG: -0.156
TAGATCAA: 0.184
AAGTAGTA: 0.214
GCCCCCAA: -0.0725
AGCCGGAA: -0.151
TAGGCCTA: 0.12

Some of these lines once more (block 5):
AATCAGAC: 0.0742
CGGGCATA: -0.0749
TAGAGACA: 0.173
GTCTGAAC: -0.0761
ATATGAAG: 0.306
ACTCTAAT: 0.195
CCATACCA: -0.0435
CCAGGTAG: -0.156
TAGATCAA: 0.184
AAGTAGTA: 0.214
